Experimental data from different studies.
Each numbered part is a random draw from the data of one study; scales do not carry over between parts.
Chain of UniProt Q9UEE5 (whole entry, looked up): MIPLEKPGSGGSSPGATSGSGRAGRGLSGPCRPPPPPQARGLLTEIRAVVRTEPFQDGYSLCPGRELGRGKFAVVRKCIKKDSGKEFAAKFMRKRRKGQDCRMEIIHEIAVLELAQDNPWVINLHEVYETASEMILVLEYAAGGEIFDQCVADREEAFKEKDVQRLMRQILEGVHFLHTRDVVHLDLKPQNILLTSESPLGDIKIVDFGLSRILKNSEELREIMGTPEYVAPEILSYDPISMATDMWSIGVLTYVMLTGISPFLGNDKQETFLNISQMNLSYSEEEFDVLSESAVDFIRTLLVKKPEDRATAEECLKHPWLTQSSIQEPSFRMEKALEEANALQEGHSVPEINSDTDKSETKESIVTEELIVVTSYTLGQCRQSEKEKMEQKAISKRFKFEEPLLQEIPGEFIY
Chain of UniProt P30530 (whole entry, looked up): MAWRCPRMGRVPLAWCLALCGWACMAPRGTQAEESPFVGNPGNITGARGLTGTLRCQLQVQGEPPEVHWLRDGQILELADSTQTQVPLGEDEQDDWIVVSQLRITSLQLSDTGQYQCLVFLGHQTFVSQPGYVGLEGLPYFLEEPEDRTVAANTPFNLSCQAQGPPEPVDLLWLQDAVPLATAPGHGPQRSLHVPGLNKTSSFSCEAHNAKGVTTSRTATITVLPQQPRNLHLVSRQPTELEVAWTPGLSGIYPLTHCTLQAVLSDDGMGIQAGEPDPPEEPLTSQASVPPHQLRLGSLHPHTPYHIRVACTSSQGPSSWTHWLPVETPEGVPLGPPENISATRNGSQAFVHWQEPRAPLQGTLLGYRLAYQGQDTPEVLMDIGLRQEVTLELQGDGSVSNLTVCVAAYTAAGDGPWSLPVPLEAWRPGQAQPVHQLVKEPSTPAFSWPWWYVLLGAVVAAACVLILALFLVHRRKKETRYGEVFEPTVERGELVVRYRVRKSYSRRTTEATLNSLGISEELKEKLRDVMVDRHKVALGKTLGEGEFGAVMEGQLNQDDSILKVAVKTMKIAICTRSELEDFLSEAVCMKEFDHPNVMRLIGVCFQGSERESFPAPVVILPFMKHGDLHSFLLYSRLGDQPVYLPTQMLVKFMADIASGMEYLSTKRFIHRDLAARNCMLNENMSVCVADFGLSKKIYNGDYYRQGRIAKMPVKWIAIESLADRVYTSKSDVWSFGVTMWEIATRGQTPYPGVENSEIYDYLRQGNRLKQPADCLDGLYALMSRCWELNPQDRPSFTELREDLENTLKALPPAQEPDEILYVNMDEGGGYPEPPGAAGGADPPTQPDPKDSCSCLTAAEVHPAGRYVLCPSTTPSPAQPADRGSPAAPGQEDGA
Chain of UniProt Q9H3Y6 (whole entry, looked up): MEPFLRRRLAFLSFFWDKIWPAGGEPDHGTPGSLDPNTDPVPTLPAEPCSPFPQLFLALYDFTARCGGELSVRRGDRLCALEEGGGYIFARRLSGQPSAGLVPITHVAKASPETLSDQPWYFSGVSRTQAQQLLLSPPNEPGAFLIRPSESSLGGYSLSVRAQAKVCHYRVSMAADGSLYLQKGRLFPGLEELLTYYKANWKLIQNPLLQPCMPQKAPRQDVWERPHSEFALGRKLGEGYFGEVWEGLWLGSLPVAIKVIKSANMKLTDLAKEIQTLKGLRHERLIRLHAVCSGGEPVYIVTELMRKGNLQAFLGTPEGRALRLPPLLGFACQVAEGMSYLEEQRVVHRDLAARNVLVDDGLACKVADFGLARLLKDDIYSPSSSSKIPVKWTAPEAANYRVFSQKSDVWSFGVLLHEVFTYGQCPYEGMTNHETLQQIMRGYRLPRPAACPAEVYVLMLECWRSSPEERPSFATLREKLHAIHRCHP

Series 1
SMILES: O=Nc1c(-c2c(O)[nH]c3cc(Br)ccc23)[nH]c2ccccc12
Effect on: enzyme activity
Action: inhibitor
Tested at: 0.5 µM
Relative to: control
target	remaining activity
STK17A (Homo sapiens, UniProt Q9UEE5)	49.2%
SRMS (Homo sapiens, UniProt Q9H3Y6)	99.6%
TSSK2 (Homo sapiens, UniProt Q96PF2)	101%
AXL (Homo sapiens, UniProt P30530)	57.7%

Series 2
Target: Alpha-2C adrenergic receptor (ADRA2C, Homo sapiens, UniProt P18825)
Chain of UniProt P18825 (whole entry, looked up): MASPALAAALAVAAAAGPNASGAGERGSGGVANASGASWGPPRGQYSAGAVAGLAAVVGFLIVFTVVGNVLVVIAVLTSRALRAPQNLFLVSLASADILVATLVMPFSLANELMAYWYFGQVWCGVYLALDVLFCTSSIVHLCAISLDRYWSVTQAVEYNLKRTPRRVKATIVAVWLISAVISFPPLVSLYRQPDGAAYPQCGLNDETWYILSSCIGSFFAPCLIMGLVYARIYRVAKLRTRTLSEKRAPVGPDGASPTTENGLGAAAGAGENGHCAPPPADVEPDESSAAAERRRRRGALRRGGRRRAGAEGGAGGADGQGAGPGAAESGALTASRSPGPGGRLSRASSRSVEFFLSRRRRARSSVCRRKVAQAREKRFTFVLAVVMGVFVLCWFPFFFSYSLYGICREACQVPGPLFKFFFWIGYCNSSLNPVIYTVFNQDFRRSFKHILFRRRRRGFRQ
Effect on: ligand displacement
Tested at: 10 µM
Structure (SMILES)	inhibition [%]
Nc1nc(NCc2ccccc2)nc(-c2ccccc2CO)n1	0.87
COc1cc(N[C@@H]2CCCC[C@]2(O)C(F)(F)F)ccc1F	-3.92
C[C@@H]1CN(c2cc(-c3n[nH]c4ccc(OC5(C)CC5)cc34)ncn2)C[C@H](C)O1	7.85
Cc1ccccc1Oc1cc(-n2c(=O)cc(C(F)(F)F)[nH]c2=O)c2ccccc2c1Cl	10.8
O=C1NC(c2ccccn2)Sc2ccccc21 (stereo not shown)	-4.89
c1ccc(N2CCN(Cc3nc4ccccc4[nH]3)CC2)nc1	9.49
CNC(=N)NCCC[C@H](NC(=O)[C@H](CC(C)C)NC(=O)NNC(=O)[C@H](Cc1ccccc1)NC(=O)[C@H](CO)NC(=O)[C@H](CC(N)=O)NC(=O)[C@@H](Cc1ccncc1)NC(=O)[C@H](N)Cc1ccc(O)cc1)C(=O)N[C@@H](Cc1ccccc1)C(N)=O	4.19
O=C(NS(=O)(=O)c1ccc(NCC2CCOCC2)c([N+](=O)[O-])c1)c1ccc(N2CCN(Cc3ccc(C(F)(F)F)cc3-c3ccc(Cl)cc3)CC2)cc1Oc1cnc2[nH]ccc2c1	12.7
c1ccc(C2CCN(c3cnc4c(N5CCOCC5)nccn34)CC2)cc1	16.5
CC(=O)N1CCC(c2ccc(C(=O)NC3=NCCN3)cc2C(F)(F)F)CC1	16.3
Nc1nc(NCc2ccccc2)nc(-c2cccc(CO)c2)n1	1.4
CN1CCN(c2cnc3c(C4CCN(C(=O)c5ccc(OC(F)(F)F)cc5N)CC4)ncnc3c2)CC1	-2.34
NS(=O)(=O)c1cc(NC(=O)Cc2ccccc2)ccc1Oc1cccc(Cl)c1	18.2
CC(=O)Nc1ncc(CN2CCC[C@H](Cc3cc(C)nc(C)c3)C2)s1	31.9

Series 3
Target: Eukaryotic initiation factor 4A-I (EIF4A1, Homo sapiens, UniProt P60842, residues 1-406, full length assumed)
Chain of UniProt P60842 (whole entry, looked up): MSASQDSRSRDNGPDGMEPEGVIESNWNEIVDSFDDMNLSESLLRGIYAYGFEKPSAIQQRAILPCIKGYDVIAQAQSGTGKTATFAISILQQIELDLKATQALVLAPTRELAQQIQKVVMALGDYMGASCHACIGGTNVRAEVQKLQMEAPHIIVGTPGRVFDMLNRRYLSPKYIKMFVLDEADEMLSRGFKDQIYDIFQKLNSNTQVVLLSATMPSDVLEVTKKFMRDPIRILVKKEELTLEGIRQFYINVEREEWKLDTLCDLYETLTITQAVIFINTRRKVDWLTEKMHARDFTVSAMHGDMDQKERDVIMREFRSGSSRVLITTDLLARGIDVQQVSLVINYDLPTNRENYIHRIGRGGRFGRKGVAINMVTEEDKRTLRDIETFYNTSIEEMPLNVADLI
Method: RNA Bind-n-Seq
Molecule type: RNA
Matrix: in vitro
Tested at: 90 pmol
Setting: 4-mer, random 30-nt RNA, single round
Added: 3 µM iPr-DMDA-PatA, 2 mM ADP, 2 mM phosphate
Relative to: input library
Direction: higher = stronger binding
Sequence	4-mer enrichment
CGCG	0.71 fold
UAAG	1.2 fold
UGGA	0.981 fold
AAGA	1.57 fold
AUUC	1.16 fold
CUUA	1.08 fold
ACCC	1.12 fold
GGAA	1.03 fold

Series 4
Target: Interferon regulatory factor 7, full length, phosphomimetic (IRF7, Homo sapiens, UniProt Q92985, residues 1-503, S471D/S472D/S475D/S476D/S477D/S483D/S484D/S487D)
Chain of UniProt Q92985 (whole entry, unmodified, looked up): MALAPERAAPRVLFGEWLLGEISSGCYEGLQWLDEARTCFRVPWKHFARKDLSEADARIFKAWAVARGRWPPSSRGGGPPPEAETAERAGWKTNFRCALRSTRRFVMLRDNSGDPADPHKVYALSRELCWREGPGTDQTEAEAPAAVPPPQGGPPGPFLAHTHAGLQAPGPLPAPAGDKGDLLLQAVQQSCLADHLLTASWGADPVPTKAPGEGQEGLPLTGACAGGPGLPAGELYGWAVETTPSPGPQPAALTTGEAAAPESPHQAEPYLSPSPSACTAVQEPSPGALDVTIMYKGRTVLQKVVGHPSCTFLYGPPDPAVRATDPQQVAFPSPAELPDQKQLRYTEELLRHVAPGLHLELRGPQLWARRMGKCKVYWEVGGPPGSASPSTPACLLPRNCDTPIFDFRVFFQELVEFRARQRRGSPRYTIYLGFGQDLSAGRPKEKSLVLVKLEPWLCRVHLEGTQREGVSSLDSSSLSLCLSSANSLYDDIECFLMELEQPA
Method: protein-binding microarray
Molecule type: double-stranded DNA, one strand shown
Matrix: in vitro
Tested at: 2200 nM top
Setting: 60-bp whole probe
Added: salmon DNA 0.4 mg/ml
Relative to: random background probes
Direction: higher = stronger binding
All sequences stand within: GCCTAGCAC … GTCTTGATTCGCTTGACGCTGCTG
Sequence	fitted relative affinity [z-score]
TCTAGCCTCCATTTTTACCCGTGCTAG	1.16
CTAGATTTCGGGTTTCGATTAGTGCTA	6.3
ATATATATGAATATATATTAGTGCTAG	0.142
GACGATCTCGGGTTTCGAGACGTGCTA	1.33
TTATATCTGTGTTATTAAATTGTGCTA	0.668
GACGGTTCCCTTTTCCTAACGTGCTAG	2.82
TTAGGTTTCCTATTCCTTTAGTGCTAG	2.67
TCAACTCTCTAATTTTGACTGTGCTAG	0.538

Some of these lines once more (series 4):
Sequence	fitted relative affinity [z-score]
TTAGGTTTCCTATTCCTTTAGTGCTAG	2.67
GACGATCTCGGGTTTCGAGACGTGCTA	1.33
CTAGATTTCGGGTTTCGATTAGTGCTA	6.3
